Experimental data of several laboratories.
Protocols differ between the studies behind these lines. Values joined by “and” are separate records of one study, mostly repeats; a detail may differ. Numbers after ± are the reported error.
Tumor necrosis factor receptor superfamily member 9/Nectin-4: Tumor necrosis factor receptor superfamily member 9/Nectin-4 (Homo sapiens, UniProt Q07011+Q96NY8)
Sequence of UniProt Q07011 (whole entry, looked up): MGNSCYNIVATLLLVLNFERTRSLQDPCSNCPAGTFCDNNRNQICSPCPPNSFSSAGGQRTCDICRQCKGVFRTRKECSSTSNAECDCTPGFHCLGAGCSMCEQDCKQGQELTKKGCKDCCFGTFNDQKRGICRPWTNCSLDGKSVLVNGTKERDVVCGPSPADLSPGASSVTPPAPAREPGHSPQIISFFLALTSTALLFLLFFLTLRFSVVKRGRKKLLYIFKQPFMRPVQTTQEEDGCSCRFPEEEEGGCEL
Sequence of UniProt Q96NY8 (whole entry, looked up): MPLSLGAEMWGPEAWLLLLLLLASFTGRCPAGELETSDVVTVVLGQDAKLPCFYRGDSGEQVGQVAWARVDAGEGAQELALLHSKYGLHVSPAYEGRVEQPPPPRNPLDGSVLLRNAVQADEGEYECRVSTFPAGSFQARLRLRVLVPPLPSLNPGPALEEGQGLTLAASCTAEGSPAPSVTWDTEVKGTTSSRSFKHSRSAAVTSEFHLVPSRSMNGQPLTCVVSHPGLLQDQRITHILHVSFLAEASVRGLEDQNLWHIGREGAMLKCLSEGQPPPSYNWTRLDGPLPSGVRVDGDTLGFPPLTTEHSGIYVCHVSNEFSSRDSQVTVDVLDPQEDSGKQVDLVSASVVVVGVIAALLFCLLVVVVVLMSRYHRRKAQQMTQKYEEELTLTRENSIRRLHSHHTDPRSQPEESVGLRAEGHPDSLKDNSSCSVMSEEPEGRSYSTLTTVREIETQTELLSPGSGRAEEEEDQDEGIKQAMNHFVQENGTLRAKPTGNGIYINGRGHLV
T1: ssDNA, aptamer; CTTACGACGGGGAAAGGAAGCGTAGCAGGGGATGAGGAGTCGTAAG
Sequence of UniProt O75762 (whole entry, looked up): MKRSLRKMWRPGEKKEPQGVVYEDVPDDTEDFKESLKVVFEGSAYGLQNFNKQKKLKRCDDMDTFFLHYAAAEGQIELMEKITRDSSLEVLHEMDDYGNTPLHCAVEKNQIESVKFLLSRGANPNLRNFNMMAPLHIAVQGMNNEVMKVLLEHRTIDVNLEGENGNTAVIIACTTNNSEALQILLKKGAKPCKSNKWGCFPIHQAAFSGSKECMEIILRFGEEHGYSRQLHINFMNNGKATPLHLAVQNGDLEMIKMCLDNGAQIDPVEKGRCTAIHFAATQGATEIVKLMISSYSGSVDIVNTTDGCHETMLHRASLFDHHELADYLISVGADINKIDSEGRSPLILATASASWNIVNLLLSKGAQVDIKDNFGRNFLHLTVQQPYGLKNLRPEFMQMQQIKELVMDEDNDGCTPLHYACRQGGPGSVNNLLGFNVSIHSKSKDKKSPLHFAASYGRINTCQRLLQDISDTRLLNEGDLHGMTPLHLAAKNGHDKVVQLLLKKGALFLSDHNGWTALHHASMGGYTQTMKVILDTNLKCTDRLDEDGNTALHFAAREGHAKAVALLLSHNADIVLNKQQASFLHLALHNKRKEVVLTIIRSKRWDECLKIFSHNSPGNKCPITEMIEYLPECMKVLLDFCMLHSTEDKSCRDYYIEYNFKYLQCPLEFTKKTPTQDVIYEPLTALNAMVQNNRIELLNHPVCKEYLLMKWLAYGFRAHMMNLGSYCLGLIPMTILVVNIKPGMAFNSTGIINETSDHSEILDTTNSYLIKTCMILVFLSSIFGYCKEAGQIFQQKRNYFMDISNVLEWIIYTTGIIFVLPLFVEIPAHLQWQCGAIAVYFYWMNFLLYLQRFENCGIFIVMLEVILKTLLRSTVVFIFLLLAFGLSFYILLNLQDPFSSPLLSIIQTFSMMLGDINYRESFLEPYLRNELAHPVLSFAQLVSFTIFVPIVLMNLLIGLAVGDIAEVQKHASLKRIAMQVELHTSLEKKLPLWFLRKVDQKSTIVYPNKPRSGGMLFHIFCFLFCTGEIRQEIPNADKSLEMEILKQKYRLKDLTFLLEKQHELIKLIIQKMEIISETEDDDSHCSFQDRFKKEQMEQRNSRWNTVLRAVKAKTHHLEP
Sequence of UniProt Q64663 (whole entry, unmodified, looked up): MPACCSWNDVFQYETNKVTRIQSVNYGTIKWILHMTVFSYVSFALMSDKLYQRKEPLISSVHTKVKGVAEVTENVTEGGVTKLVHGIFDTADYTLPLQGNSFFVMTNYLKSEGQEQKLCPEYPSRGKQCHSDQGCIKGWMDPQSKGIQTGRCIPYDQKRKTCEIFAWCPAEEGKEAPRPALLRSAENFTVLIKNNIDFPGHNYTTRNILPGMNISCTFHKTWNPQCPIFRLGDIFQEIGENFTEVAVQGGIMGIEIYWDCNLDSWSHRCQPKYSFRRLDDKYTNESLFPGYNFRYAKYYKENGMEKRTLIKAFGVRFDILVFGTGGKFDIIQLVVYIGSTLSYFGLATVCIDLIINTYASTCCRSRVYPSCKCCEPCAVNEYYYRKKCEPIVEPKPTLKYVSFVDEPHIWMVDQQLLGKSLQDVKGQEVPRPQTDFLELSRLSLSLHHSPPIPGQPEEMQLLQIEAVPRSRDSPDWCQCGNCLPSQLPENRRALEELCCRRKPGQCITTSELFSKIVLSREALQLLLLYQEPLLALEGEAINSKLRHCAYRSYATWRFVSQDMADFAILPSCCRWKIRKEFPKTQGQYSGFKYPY
Sequence of UniProt Q16774 (whole entry, looked up): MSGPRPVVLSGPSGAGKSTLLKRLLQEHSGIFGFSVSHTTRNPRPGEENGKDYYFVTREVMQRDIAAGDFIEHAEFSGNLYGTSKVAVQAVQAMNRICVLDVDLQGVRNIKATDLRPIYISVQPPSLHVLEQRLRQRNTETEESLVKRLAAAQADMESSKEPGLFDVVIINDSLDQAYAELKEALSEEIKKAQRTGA
Sequence of UniProt P51575 (whole entry, unmodified, looked up): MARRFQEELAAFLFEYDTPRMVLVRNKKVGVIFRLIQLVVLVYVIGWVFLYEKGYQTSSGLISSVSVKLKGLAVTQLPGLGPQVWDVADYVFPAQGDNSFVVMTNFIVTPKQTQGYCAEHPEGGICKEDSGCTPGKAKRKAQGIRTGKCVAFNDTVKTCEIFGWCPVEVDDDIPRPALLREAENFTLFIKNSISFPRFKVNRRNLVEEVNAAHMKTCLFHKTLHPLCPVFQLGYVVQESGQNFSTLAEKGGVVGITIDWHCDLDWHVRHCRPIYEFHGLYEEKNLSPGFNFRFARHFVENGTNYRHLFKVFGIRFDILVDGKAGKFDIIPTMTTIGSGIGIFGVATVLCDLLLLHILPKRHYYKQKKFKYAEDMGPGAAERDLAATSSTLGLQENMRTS
Sequence of UniProt P22736 (whole entry, looked up): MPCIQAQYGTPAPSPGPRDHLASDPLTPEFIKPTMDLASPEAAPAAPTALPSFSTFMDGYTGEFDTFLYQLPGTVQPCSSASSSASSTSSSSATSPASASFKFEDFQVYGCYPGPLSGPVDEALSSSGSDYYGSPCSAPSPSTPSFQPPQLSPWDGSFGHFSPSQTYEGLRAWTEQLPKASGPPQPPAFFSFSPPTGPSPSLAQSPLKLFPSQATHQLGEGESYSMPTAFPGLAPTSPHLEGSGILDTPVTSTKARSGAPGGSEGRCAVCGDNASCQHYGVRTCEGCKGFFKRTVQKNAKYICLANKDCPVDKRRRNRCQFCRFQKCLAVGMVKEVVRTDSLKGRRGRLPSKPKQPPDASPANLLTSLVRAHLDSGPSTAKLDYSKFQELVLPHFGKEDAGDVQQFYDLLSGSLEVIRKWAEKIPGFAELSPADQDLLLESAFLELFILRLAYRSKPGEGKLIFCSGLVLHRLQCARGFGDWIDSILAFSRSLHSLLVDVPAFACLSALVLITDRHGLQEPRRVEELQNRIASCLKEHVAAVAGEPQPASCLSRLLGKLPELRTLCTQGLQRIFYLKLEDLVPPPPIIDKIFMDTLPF
Sequence of UniProt P41595 (whole entry, looked up): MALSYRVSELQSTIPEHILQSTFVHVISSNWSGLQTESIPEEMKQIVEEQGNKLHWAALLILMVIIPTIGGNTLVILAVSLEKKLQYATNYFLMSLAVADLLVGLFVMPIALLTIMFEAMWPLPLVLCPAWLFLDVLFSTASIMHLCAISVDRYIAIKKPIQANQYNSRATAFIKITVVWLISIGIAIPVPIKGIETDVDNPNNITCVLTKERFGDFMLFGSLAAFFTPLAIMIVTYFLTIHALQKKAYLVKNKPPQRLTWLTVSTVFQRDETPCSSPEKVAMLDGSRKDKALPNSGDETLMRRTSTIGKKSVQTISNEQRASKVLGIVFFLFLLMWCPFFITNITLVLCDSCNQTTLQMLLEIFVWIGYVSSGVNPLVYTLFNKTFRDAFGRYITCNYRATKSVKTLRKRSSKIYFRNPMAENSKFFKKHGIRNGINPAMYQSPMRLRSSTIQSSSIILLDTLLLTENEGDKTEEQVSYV
Sequence of UniProt P02763 (whole entry, looked up): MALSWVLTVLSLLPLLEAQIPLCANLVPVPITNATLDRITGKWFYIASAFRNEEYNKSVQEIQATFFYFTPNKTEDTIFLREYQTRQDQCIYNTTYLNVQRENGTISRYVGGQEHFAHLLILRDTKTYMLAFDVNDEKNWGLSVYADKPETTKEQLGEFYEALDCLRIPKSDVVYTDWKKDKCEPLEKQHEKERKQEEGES
Sequence of UniProt Q05513 (whole entry, looked up): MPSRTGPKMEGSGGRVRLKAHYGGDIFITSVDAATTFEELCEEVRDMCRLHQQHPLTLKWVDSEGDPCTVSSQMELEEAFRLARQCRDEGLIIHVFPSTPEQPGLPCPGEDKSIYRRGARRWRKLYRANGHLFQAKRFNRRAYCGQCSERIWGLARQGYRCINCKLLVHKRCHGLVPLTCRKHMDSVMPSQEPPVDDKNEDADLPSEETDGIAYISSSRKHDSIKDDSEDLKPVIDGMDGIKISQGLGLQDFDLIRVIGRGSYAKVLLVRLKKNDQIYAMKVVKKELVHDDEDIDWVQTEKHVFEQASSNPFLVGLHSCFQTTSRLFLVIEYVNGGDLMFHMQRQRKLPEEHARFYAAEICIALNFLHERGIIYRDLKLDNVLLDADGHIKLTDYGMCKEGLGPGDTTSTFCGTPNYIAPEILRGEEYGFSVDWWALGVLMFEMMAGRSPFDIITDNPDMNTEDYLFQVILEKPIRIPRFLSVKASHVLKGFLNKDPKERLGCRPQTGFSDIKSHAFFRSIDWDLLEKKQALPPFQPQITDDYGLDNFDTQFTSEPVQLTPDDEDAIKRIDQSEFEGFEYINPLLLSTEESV

SMILES | target | assay | test system | setting | scale | endpoint | result
Cc1ncsc1-c1ccc([C@H](CC(=O)NCCOCCOCCOCCOCCOCCC(=O)N2CCC(Nc3cc(C(=O)NC[C@H](O)CN4CCc5ccccc5C4)ncn3)CC2)NC(=O)[C@@H]2C[C@@H](O)CN2C(=O)[C@@H](NC(=O)C2(F)CC2)C(C)(C)C)cc1 | PRMT5 (Homo sapiens, UniProt O14744) | degrader, Western blot | MDA-MB-468 | 72 h |  | Dmax | > 85%
C=CC(=O)N1CCC(C(=O)NCC(=O)N2CCN(c3nc(-c4cnc(N)nc4C(F)F)nc(N4CCOCC4)n3)CC2)CC1 | Non-receptor tyrosine-protein kinase TYK2, JH2 pseudokinase domain (TYK2, Homo sapiens, UniProt P29597) | KINOMEscan |  | 1 µM |  | remaining binding | 56%
Cc1cccc(NC(=O)Cn2cc(CO)c3ccccc32)c1 | Sodium channel protein type 8 subunit alpha, C-terminal domain (SCN8A, Homo sapiens, UniProt Q9UQD0) | binder, SPR |  |  |  | koff | 0.0292 ± 8.4e-05 s⁻¹
COc1cc(-c2cc(C(C)=O)n3ccccc23)c(OC)cc1Cn1ccnc1 | KAT2A (Homo sapiens, UniProt Q92830) |  |  |  |  | ΔTm | 2.4 °C
Nc1ncnc2c1ncn2[C@@H]1O[C@H](COP(=O)(O)OP(=O)(O)O)[C@@H](O)[C@H]1O | T1, ssDNA, aptamer | ITC |  |  |  | Kd | 19.9 µM
CC(=O)N[C@H](C(=O)N[C@@H](CC(N)=O)C(=O)N[C@@H](CCCCN)C(=O)N1CCC[C@H]1C(=O)N[C@@H](CC(C)C)C(=O)N1CCC[C@H]1C(=O)N1CCC[C@H]1C(=O)N[C@@H](CC(C)C)C(=O)N1CCC[C@H]1C(=O)N[C@H](C(=O)N[C@@H](C)C(N)=O)C(C)C)C(C)C | High osmolarity signaling protein SHO1, SH3 domain (SHO1, Saccharomyces cerevisiae, UniProt P40073) | ligand binding, FTIR spectroscopy, measured: asymmetric stretch band C |  | pH 7.0, SHO1 complex, added: 4 mM peptide |  | wavenumber | 2253.6 ± 1 cm⁻¹
[Cl-].[Na+] | GUK1 (Homo sapiens, UniProt Q16774) | enzyme activity, NADH-coupled |  | 60 mM |  | reaction velocity | 0.0124 µM/s and 0.0297 µM/s and 0.0336 µM/s
C=CC(=O)N1CCC(COCC(=O)N2CCN(c3nc(-c4cnc(N)nc4C(F)F)nc(N4CCOC[C@@H]4C)n3)CC2)CC1 | DMPK (Homo sapiens, UniProt Q09013) | KINOMEscan |  | 1 µM |  | remaining binding | 98%
C#CCCOC(=O)[C@]1(C)C=C(C(=O)OC(C)(C)C)C(=O)CC1 | MAPK8 (Homo sapiens, UniProt P45983) | D-peptide binding, inhibitor, FP peptide displacement |  | 12.5 µM | lower is stronger displacement | fraction bound | 0.466
Nc1ncnc2c1ncn2[C@@H]1O[C@H](COP(=O)(O)OP(=O)(O)OP(=O)(O)O)[C@@H](O)[C@H]1O | P2X purinoceptor 7 (P2rx7, Rattus norvegicus, UniProt Q64663, Q143A/R125A) | ion current, agonist, two-electrode voltage clamp | Xenopus laevis oocytes | 55 µM | baseline: highest concentration response | normalized current | 0.231 and 0.29 and 0.194
Nc1ncnc2c1ncn2[C@@H]1O[C@H](COP(=O)(O)CP(=O)(O)OP(=O)(O)O)[C@@H](O)[C@H]1O | P2X purinoceptor 1 (P2RX1, Homo sapiens, UniProt P51575, R139P) | calcium influx |  | 316 nM | baseline: ionomycin response | calcium influx | 22.3% and 20.3% and 13.1%
CN(C)C(=O)C(CCN1CCC(O)(c2ccc(Cl)cc2)CC1)(c1ccccc1)c1ccccc1 | Calcium-activated potassium channel subunit alpha-1, with LRRC26 γ1 subunit (KCNMA1, Homo sapiens, UniProt Q12791) | BK current, inside-out patch clamp | excised membrane patch | 0.1 µM, γ1 subunit coexpressed, added: nominally 0 Ca2+ cytosolic |  | effective gating valence | 1.17 elementary charges
CC(=O)N[C@H](C(=O)N1C[C@H](O)C[C@H]1C(=O)NCc1ccc(-c2scnc2C)cc1)C(C)(C)SCCCCCCNC(=O)C[C@@H]1N=C(c2ccc(Cl)cc2)c2c(sc(C)c2C)-n2c(C)nnc21 | Bromodomain-containing protein 2, BD2 (BRD2, Homo sapiens, UniProt P25440) | binding, ITC |  | 25 °C, compound in cell, protein in syringe |  | ΔG | -9.59 ± 0.06 kcal/mol
COc1cc(-c2cncc3c2CN(C)Cc2cc(N4CCNCC4)ccc2-3)cc(OC)c1OC | PRKCZ (Homo sapiens, UniProt Q05513) | kinase activity |  | 1 µM, human enzyme, added: ATP 10 µM | baseline: DMSO control | remaining activity | 108%
Cc1ncsc1-c1ccc(CNC(=O)[C@@H]2C[C@H](O)CN2C(=O)[C@@H](NC(=O)C2(F)CC2)C(C)(C)C)c(OCCOc2ccc(CN3CCN(c4cc(-c5ccccc5O)nnc4N)CC3)cc2)c1 | Protein polybromo-1, BD5 (PBRM1, Homo sapiens, UniProt Q86U86) | ternary complex binding, TR-FRET competition |  | added: VCB complex |  | cooperativity factor alpha | 1
[Ca] | TRPA1 (Homo sapiens, UniProt O75762) | ion current, two-electrode voltage clamp | Xenopus oocytes | concentration not given, -80 mV, added: extracellular Ca2+ | baseline: current before Ca2+ addition | potentiation | 22.9 fold change and 2.57 fold change and 7.02 fold change and 0.645 fold change and 27.5 fold change
Cc1n[nH]c2ccc(-c3cc(OC[C@@H](N)Cc4ccccc4)cnc3-c3ccoc3)cc12 | Mitogen-activated protein kinase HOG1 (HOG1, Candida albicans, UniProt Q92207) | MIB/MS competition binding | Candida albicans cell lysate | 10 µM | baseline: DMSO, lower = stronger binding | log2 fold change | -0.916
O=C(Nc1ccc(-c2nc(-c3ccc(Cl)cc3)no2)cc1)C1CC(=O)N(Cc2ccco2)C1 (stereo not shown) | RXFP3 (Homo sapiens, UniProt Q9NSD7) | antagonist | CHO-K1 membranes | added: relaxin-3 |  | Emax | decreased
COc1ccc2c(c1)CN(CCCN1CCN(c3ccccc3OC)CC1)C2=O | HTR2B (Homo sapiens, UniProt P41595) | radioligand binding |  | concentration not given, added: [3H]LSD |  | inhibition | 96.6%
O=c1nc(SCc2cc(F)cc(C(F)(F)F)c2)nc(SCc2csc3ccc(Cl)cc23)[nH]1 | TOP2A (Homo sapiens, UniProt P11388) | decatenation |  | 7.8 µM, replicate 1 |  | decatenated DNA | 94.5%
CCCC[C@@H]1NC(=O)[C@H](Cc2ccc(O)cc2)NC(=O)[C@@H]2CCCN2C(=O)[C@H](CCC(=O)O)NC(=O)[C@H](C)NC(=O)[C@H](Cc2ccccc2)NC(=O)[C@@H]2CSCCC(=O)N3CN(CN(C3)C(=O)CCSC[C@H](NC(C)=O)C(=O)N[C@@H](CC(C)(C)C)C(=O)N3CCC[C@H]3C(=O)N[C@@H](CCC(=O)O)C(=O)N[C@H](CCCCNC(=O)CCc3cn(CCOCCOCCOCCOCCOCCC(=O)N[C@H]4CSCCC(=O)N5CN6CN(C5)C(=O)CCSC[C@H](NC(=O)[C@@H](CC(=O)O)NC(=O)[C@H](Cc5cccc7ccccc57)NC(=O)[C@@H]5CCCN5C4=O)C(=O)N[C@@H](CCSC)C(=O)N[C@@H](CCCCNC(=N)N)C(=O)N[C@@H](CC(=O)O)C(=O)N[C@@H](Cc4c[nH]c5ccccc45)C(=O)N[C@@H](CO)C(=O)N[C@@H]([C@@H](C)O)C(=O)N4CCC[C@H]4C(=O)N4C[C@H](O)C[C@H]4C(=O)N[C@@H](Cc4c[nH]c5ccccc45)C(=O)N[C@H](C(N)=O)CSCCC6=O)nn3)C(=O)N3CCC[C@H]3C(=O)N[C@@H](Cc3ccc(O)cc3)C(=O)N2)C(=O)CCSC[C@@H](C(N)=O)NC1=O | Tumor necrosis factor receptor superfamily member 9/Nectin-4 | reporter gene, agonist | HT-1376 coculture with reporter cells |  | baseline: background | Emax | 2.2 fold
Nc1ccc(S(=O)(=O)Nc2nnc(Cc3ccccc3)s2)cc1 | Glutathione hydrolase 1 proenzyme, without transmembrane domain (Homo sapiens, UniProt P19440) | GSH hydrolysis, uncompetitive inhibitor |  | 37 °C, binds gamma-glutamyl enzyme, added: GSH 5-20 µM |  | Kii | 242 ± 6 µM
CCS(=O)(=O)N1CC(CC#N)(n2cc(-c3ncnc4[nH]ccc34)cn2)C1 | ORM1 (Homo sapiens, UniProt P02763) | 3D fluorescence |  | 2.4 µM |  | Stokes shift | 49 nm
Cc1cc(Nc2cc(N3CCN(C)CC3)nc(Sc3ccc(NC(=O)C4CC4)cc3)n2)[nH]n1 | MINK1 (Homo sapiens, UniProt Q8N4C8) | kinase activity, KinaseProfiler |  | 0.03 µM, species human | baseline: control | remaining activity | 84%
COCCC(=O)N1CCC(Oc2ccccc2)C1 (stereo not shown) | FBXW7 (Homo sapiens, UniProt Q969H0) | binding, affinity selection mass spectrometry |  |  | baseline: other proteins in batch | fold enrichment | 0.817
CN1C(C(=O)Nc2ccccn2)=C(O)c2sc(Cl)cc2S1(=O)=O | Nuclear receptor subfamily 4 group A member 1 (NR4A1, Homo sapiens, UniProt P22736) | reporter gene, NBRE reporter full-length |  | 30 µM | baseline: vehicle | activation | 0.91 fold
CCCC[C@@H]1NC(=O)[C@H](Cc2ccc(O)cc2)NC(=O)[C@@H]2CCCN2C(=O)[C@H](CC(=O)O)NC(=O)[C@H](C)NC(=O)[C@H](Cc2ccccc2)NC(=O)[C@@H]2CSCCC(=O)N3CN(CN(C3)C(=O)CCSC[C@H](NC(C)=O)C(=O)N[C@@H](CC(C)(C)C)C(=O)N[C@@H](CCC(=O)O)C(=O)N[C@@H](CCC(=O)O)C(=O)N[C@H](CCCCNC(=O)CCc3cn(CCOCCOCCOCCN(CCOCCOCCOCCC(=O)N[C@H]4CSCCC(=O)N5CN6CN(C5)C(=O)CCSC[C@H](NC(=O)[C@@H](CC(=O)O)NC(=O)[C@H](Cc5cccc7ccccc57)NC(=O)[C@@H]5CCCN5C4=O)C(=O)N[C@@H](CCSC)C(=O)N[C@@H](CCCCNC(=N)N)C(=O)N[C@@H](CC(=O)O)C(=O)N[C@@H](Cc4c[nH]c5ccccc45)C(=O)N[C@@H](CO)C(=O)N[C@@H]([C@@H](C)O)C(=O)N4CCC[C@H]4C(=O)N4C[C@H](O)C[C@H]4C(=O)N[C@@H](Cc4c[nH]c5ccccc45)C(=O)N[C@H](C(N)=O)CSCCC6=O)CCOCCOCCOCCn4cc(CCC(=O)NCCCC[C@H]5NC(=O)[C@H](CCC(=O)O)NC(=O)[C@H](CCC(=O)O)NC(=O)[C@H](CC(C)(C)C)NC(=O)[C@@H](NC(C)=O)CSCCC(=O)N6CN7CN(C6)C(=O)CCSC[C@H](NC(=O)[C@H](Cc6ccc(O)cc6)NC(=O)[C@@H]6CCCN6C5=O)C(=O)N[C@@H](Cc5ccccc5)C(=O)N[C@@H](C)C(=O)N[C@@H](CC(=O)O)C(=O)N5CCC[C@H]5C(=O)N[C@@H](Cc5ccc(O)cc5)C(=O)N[C@@H](CCCC)C(=O)N[C@H](C(N)=O)CSCCC7=O)nn4)nn3)C(=O)N3CCC[C@H]3C(=O)N[C@@H](Cc3ccc(O)cc3)C(=O)N2)C(=O)CCSC[C@@H](C(N)=O)NC1=O | Tumor necrosis factor receptor superfamily member 9/Nectin-4 | reporter gene, agonist | HT-1376 coculture with reporter cells |  | baseline: background | Emax | 63 fold
CC[C@H](C)[C@@H]1NC(=O)[C@H](C)NC(=O)[C@H]([C@@H](C)CC)NC(=O)[C@H](CCC(N)=O)NC(=O)[C@H](C)NC(=O)[C@H](CCCNC(=N)N)NC(=O)[C@H](C(C)C)NC(=O)[C@H](CC(C)C)NC(=O)[C@H](CCC(=O)O)NC(=O)[C@H](CCCNC(=N)N)NC(=O)CNC(=O)[C@@H](NC(=O)[C@H](CC(C)C)NC(=O)[C@H](CCCCN)NC(=O)[C@@H](NC(=O)[C@@H](NC(=O)[C@H](CCC(=O)O)NC(=O)[C@H](CCC(=O)O)NC(=O)[C@H](CCSC)NC(=O)[C@H](Cc2c[nH]c3ccccc23)NC(=O)[C@H](CO)NC(=O)[C@@H](N)CC(=O)O)C(C)C)[C@@H](C)CC)CSSC[C@@H]2NC(=O)[C@@H](NC(=O)[C@H](CCCCN)NC(=O)[C@H](CC(N)=O)NC(=O)[C@H](C)NC(=O)[C@H](CC(C)C)NC(=O)[C@H](C)NC(=O)[C@H](CO)NC(=O)[C@H](Cc3ccc(O)cc3)NC(=O)[C@H](CC(C)C)NC(=O)[C@H](CCC(N)=O)NC(=O)c3ccc(-c4c5ccc(=[N+](C)C)cc-5oc5cc(N(C)C)ccc45)c(C(=O)[O-])c3)CSSC[C@H](NC(=O)CNC(=O)[C@H](C(C)C)NC(=O)[C@H](Cc3c[nH]cn3)NC2=O)C(=O)N[C@@H]([C@@H](C)O)C(=O)N[C@@H](CCCCN)C(=O)N[C@@H](CCCNC(=N)N)C(=O)N[C@@H](CO)C(=O)N[C@@H](CC(C)C)C(=O)N[C@@H](C)C(=O)N[C@@H](CCCNC(=N)N)C(=O)N[C@@H](Cc2ccccc2)C(=O)N[C@H](C(=O)O)CSSC[C@@H](C(=O)NCC(=O)N[C@@H](CCSC)C(=O)N[C@@H](CO)C(=O)N[C@H](C(=O)N[C@@H](Cc2c[nH]c3ccccc23)C(=O)N[C@@H](CO)C(=O)O)[C@@H](C)O)NC1=O | Relaxin receptor 1 (RXFP1, Homo sapiens, UniProt Q9HBX9, F76A/Y80A) | binding, NanoBRET |  | added: relaxin 10 nM |  | dissociation plateau | 14.2%
